Results collected from several papers.
Protocols differ between the studies behind these lines. Numbers after ± are the reported error.

| Compound | system | conditions | tissue uptake |
| --- | --- | --- | --- |
| CCCC[C@H](NC(=O)CNC(=O)CNC(=O)CN1CCN(CC(=O)O)CCN(CC(=O)O)CC1)C(=O)N[C@H]1CC(=O)NCCCC[C@@H](C(N)=O)NC(=O)[C@H](Cc2c[nH]c3ccccc23)NC(=O)[C@H](CCCNC(=N)N)NC(=O)[C@@H](Cc2ccccc2)NC(=O)[C@H](Cc2c[nH]cn2)NC1=O [technetium-99m labelled] | C57 mouse, bone | iv, 0.037 MBq, 4 h | 0.07 ± 0.06 %ID/g |
| N=C(N)NCCC[C@@H]1NC(=O)[C@H](CCCCNC(=O)CNC(=O)CNC(=O)CNC(=O)CC[C@H](NC(=O)CNC(=O)CNC(=O)CNC(=O)CN2CCN(CC(=O)O)CCN(CC(=O)O)CCN(CC(=O)O)CC2)C(=O)NCC(=O)NCC(=O)NCC(=O)NCCCC[C@@H]2NC(=O)[C@@H](Cc3ccccc3)NC(=O)[C@H](CC(=O)O)NC(=O)CNC(=O)[C@H](CCCNC(=N)N)NC2=O)NC(=O)[C@@H](Cc2ccccc2)NC(=O)[C@H](CC(=O)O)NC(=O)CNC1=O [copper-64 labelled] | athymic nu/nu mouse, female, liver | intravenous, 1 h | 3.01 ± 0.51 %ID/g |
| N=C(N)NCCC[C@@H]1NC(=O)[C@H](CCCCNC(=O)CC[C@H](NC(=O)CC[C@H](NC(=O)CN2CCN(CC(=O)O)CCN(CC(=O)O)CCN(CC(=O)O)CC2)C(=O)N[C@@H](CCC(=O)NCCCC[C@@H]2NC(=O)[C@@H](Cc3ccccc3)NC(=O)[C@H](CC(=O)O)NC(=O)CNC(=O)[C@H](CCCNC(=N)N)NC2=O)C(=O)NCCCC[C@@H]2NC(=O)[C@@H](Cc3ccccc3)NC(=O)[C@H](CC(=O)O)NC(=O)CNC(=O)[C@H](CCCNC(=N)N)NC2=O)C(=O)NCCCC[C@@H]2NC(=O)[C@@H](Cc3ccccc3)NC(=O)[C@H](CC(=O)O)NC(=O)CNC(=O)[C@H](CCCNC(=N)N)NC2=O)NC(=O)[C@@H](Cc2ccccc2)NC(=O)[C@H](CC(=O)O)NC(=O)CNC1=O [indium-111 labelled] | female athymic nu/nu mice, spleen | intravenous, 111 kBq, 72 h | 1.16 ± 0.63 %ID/g |
| CCCC[C@H](NC(=O)CCCCCCCNC(=O)CN1CCN(CC(=O)O)CCN(CC(=O)O)CC1)C(=O)N[C@H]1CC(=O)NCCCC[C@@H](C(N)=O)NC(=O)[C@H](Cc2c[nH]c3ccccc23)NC(=O)[C@H](CCCNC(=N)N)NC(=O)[C@@H](Cc2ccccc2)NC(=O)[C@H](Cc2c[nH]cn2)NC1=O [copper-64 labelled] | C57 mice, skin | intravenous, 0.37 MBq, 0.5 h | 2.93 ± 0.22 %ID/g |
| N=C(N)NCCC[C@@H]1NC(=O)[C@H](CCCCNC(=O)CNC(=O)CNC(=O)CNC(=O)CC[C@H](NC(=O)CNC(=O)CNC(=O)CNC(=O)CN2CCN(CC(=O)O)CCN(CC(=O)O)CCN(CC(=O)O)CC2)C(=O)NCC(=O)NCC(=O)NCC(=O)NCCCC[C@@H]2NC(=O)[C@@H](Cc3ccccc3)NC(=O)[C@H](CC(=O)O)NC(=O)CNC(=O)[C@H](CCCNC(=N)N)NC2=O)NC(=O)[C@@H](Cc2ccccc2)NC(=O)[C@H](CC(=O)O)NC(=O)CNC1=O [indium-111 labelled] | female athymic nu/nu mice, brain | intravenous, 0.5 h | 0.13 ± 0.03 %ID/g |
| CCCC[C@H](NC(=O)COCCOCCNC(=O)CN1CCN(CC(=O)O)CCN(CC(=O)O)CC1)C(=O)N[C@H]1CC(=O)NCCCC[C@@H](C(N)=O)NC(=O)[C@H](Cc2c[nH]c3ccccc23)NC(=O)[C@H](CCCNC(=N)N)NC(=O)[C@@H](Cc2ccccc2)NC(=O)[C@H](Cc2c[nH]cn2)NC1=O [copper-64 labelled] | C57 mice, pancreas | intravenous, 0.37 MBq, 24 h | 0.01 ± 0.01 %ID/g |
| CCCC[C@H](NC(=O)CNC(=O)CNC(=O)CN1CCN(CC(=O)O)CCN(CC(=O)O)CCN(CC(=O)O)CC1)C(=O)N[C@H]1CC(=O)NCCCC[C@@H](C(N)=O)NC(=O)[C@H](Cc2c[nH]c3ccccc23)NC(=O)[C@H](CCCNC(=N)N)NC(=O)[C@@H](Cc2ccccc2)NC(=O)[C@H](Cc2c[nH]cn2)NC1=O [lutetium-177 labelled] | C57 mouse, female, kidneys | intravenous, 0.037 MBq, 2 h | 7.83 ± 1.38 %ID/g |
| N=C(N)NCCC[C@@H]1NC(=O)[C@H](CCCCNC(=O)CNC(=O)CNC(=O)CNC(=O)CC[C@H](NC(=O)CNC(=O)CNC(=O)CNC(=O)CC[C@H](NC(=O)CN2CCN(CC(=O)O)CCN(CC(=O)O)CCN(CC(=O)O)CC2)C(=O)NCC(=O)NCC(=O)NCC(=O)N[C@@H](CCC(=O)NCC(=O)NCC(=O)NCC(=O)NCCCC[C@@H]2NC(=O)[C@@H](Cc3ccccc3)NC(=O)[C@H](CC(=O)O)NC(=O)CNC(=O)[C@H](CCCNC(=N)N)NC2=O)C(=O)NCC(=O)NCC(=O)NCC(=O)NCCCC[C@@H]2NC(=O)[C@@H](Cc3ccccc3)NC(=O)[C@H](CC(=O)O)NC(=O)CNC(=O)[C@H](CCCNC(=N)N)NC2=O)C(=O)NCC(=O)NCC(=O)NCC(=O)NCCCC[C@@H]2NC(=O)[C@@H](Cc3ccccc3)NC(=O)[C@H](CC(=O)O)NC(=O)CNC(=O)[C@H](CCCNC(=N)N)NC2=O)NC(=O)[C@@H](Cc2ccccc2)NC(=O)[C@H](CC(=O)O)NC(=O)CNC1=O [indium-111 labelled] | female athymic nu/nu mice, spleen | intravenous, 111 kBq, 4 h | 2.35 ± 0.23 %ID/g |
| CC(C)C[C@H](NC(=O)[C@@H](CCCCNC(=O)CCCCCNC(=O)CN1CCN(CC(=O)O)CCN(CC(=O)O)CCN(CC(=O)O)CC1)NC(=O)[C@H](Cc1ccc(O)cc1)NC(=O)[C@H](CO)NC(=O)[C@H](Cc1c[nH]c2ccccc12)NC(=O)[C@H](Cc1cnc[nH]1)NC(=O)[C@@H]1CCC(=O)N1)C(=O)N[C@@H](CCCNC(=N)N)C(=O)N1CCC[C@H]1C(=O)NCC(N)=O [indium-111 labelled] | female athymic nude mouse, stomach | intravenous, 0.037 MBq, 24 h | 0.04 ± 0.01 %ID/g |

Repeated from above:
| Compound | system | conditions | tissue uptake |
| --- | --- | --- | --- |
| CCCC[C@H](NC(=O)CCCCCCCNC(=O)CN1CCN(CC(=O)O)CCN(CC(=O)O)CC1)C(=O)N[C@H]1CC(=O)NCCCC[C@@H](C(N)=O)NC(=O)[C@H](Cc2c[nH]c3ccccc23)NC(=O)[C@H](CCCNC(=N)N)NC(=O)[C@@H](Cc2ccccc2)NC(=O)[C@H](Cc2c[nH]cn2)NC1=O [copper-64 labelled] | C57 mice, skin | intravenous, 0.37 MBq, 0.5 h | 2.93 ± 0.22 %ID/g |
